Measured values collected from several papers.
Lines come from different studies, so protocols differ.

SMILES | organism | test | system | conditions | MIC
COC1CCN(Cc2cc(N(C)C)c3c(c2O)C(=O)C2=C(O)[C@]4(O)C(=O)C(C(N)=O)=C(O)[C@@H](N(C)C)[C@@H]4C[C@@H]2C3)CC1 | Streptococcus pneumoniae |  | ATCC 700905, Tet M ribosome protection |  | < 0.06 µg/mL
Cc1ccc(Cn2ccc([C@H](C)[C@](O)(Cn3cnnn3)c3ccc(F)cc3F)n2)cc1 | Candida tropicalis | growth, broth microdilution | 2718 | 24 h, 30 °C, ≥50% inhibition | < 0.008 µg/mL
CC[C@@H](C)[C@@H](NC(=O)[C@@H](C)NC(=O)[C@@H](CCCCN)NC(=O)[C@@H](CC(C)C)NC(=O)[C@@H](C)NC(=O)[C@H](NC(=O)[C@@H](Cc1c[nH]cn1)NC(=O)[C@@H](CC(C)C)NC(=O)[C@H](NC(=O)[C@H](NC(=O)[C@@H](CCCCN)NC(=O)[C@H](NC(=O)[C@@H](C)NC(=O)[C@@H](CO)NC(=O)[C@@H](CCCCN)NC(=O)[C@@H](Cc1ccccc1)NC(=O)[C@H](NC(=O)[C@@H](CCCCN)NC(=O)[C@@H](CC(C)C)NC(=O)[C@@H](Cc1ccccc1)NC(=O)[C@@H](CO)NC(=O)[C@@H](CCCCN)NC(=O)[C@@H](Cc1c[nH]c2ccccc12)NC(=O)[C@@H](CCCCN)NC(C)=O)[C@H](C)O)C(C)C)[C@H](C)O)C(C)C)[C@H](C)O)C(=O)N[C@H](CO)C(=O)N[C@H](CO)C(N)=O | Acinetobacter baumannii |  | 821, Mueller-Hinton broth | 24 h, 37 °C | 0.7 µM
CC(C)c1ccc(Cn2ccc([C@H](C)[C@](O)(Cn3cnnn3)c3ccc(F)cc3F)n2)cc1 | Candida tropicalis | growth, broth microdilution | 2718 | 24 h, 30 °C, ≥50% inhibition | < 0.008 µg/mL
CN(C)c1cc(CNC2CCCC2)c(O)c2c1C[C@H]1C[C@H]3[C@H](N(C)C)C(O)=C(C(N)=O)C(=O)[C@@]3(O)C(O)=C1C2=O | Streptococcus pneumoniae |  | 157E | 50% mouse serum | < 0.06 µg/mL
C[C@@H](c1ccn(Cc2ccc(Cl)cc2Cl)n1)[C@](O)(Cn1cnnn1)c1ccc(F)cc1F | Candida tropicalis | growth, broth microdilution | 2718 | 24 h, 30 °C, ≥50% inhibition | < 0.008 µg/mL
N#Cc1ccc2cccc(O)c2n1 | Saccharomyces cerevisiae | microbial growth, agar dilution | ATCC2601 |  | > 1500 µM
CN(C)c1cc(CNCCC(C)(C)C)c(O)c2c1C[C@H]1C[C@H]3[C@H](N(C)C)C(O)=C(C(N)=O)C(=O)[C@@]3(O)C(O)=C1C2=O | Streptococcus pneumoniae |  | 157E | 50% mouse serum | 0.5 µg/mL
c1ccc(CN2CCOCCOCCN(CCCCCCCCCCN3CCOCCOCCN(CCCCCCCCCCN4CCOCCOCCN(Cc5ccccc5)CCOCCOCC4)CCOCCOCC3)CCOCCOCC2)cc1 | Streptococcus pneumoniae | microbial growth |  |  | 6 µM
C[C@@H](c1ccn(Cc2cccc(F)c2F)n1)[C@](O)(Cn1cnnn1)c1ccc(F)cc1F | Candida tropicalis | growth, broth microdilution | 2718 | 24 h, 30 °C, ≥50% inhibition | < 0.008 µg/mL
CN(C)c1cc(CN2CCCCC2)c(O)c2c1C[C@H]1C[C@H]3[C@H](N(C)C)C(O)=C(C(N)=O)C(=O)[C@@]3(O)C(O)=C1C2=O | Streptococcus pneumoniae |  | ATCC 700905, Tet M ribosome protection |  | < 0.06 µg/mL
C[C@@H](c1ccn(Cc2ccc(C#N)cc2)n1)[C@](O)(Cn1cnnn1)c1ccc(F)cc1F | Candida tropicalis | growth, broth microdilution | 2718 | 24 h, 30 °C, ≥50% inhibition | < 0.008 µg/mL
Oc1c(Br)ccc2cccnc12 | Saccharomyces cerevisiae | microbial growth, agar dilution | ATCC2601 |  | 35.7 µM
CC1CCN(Cc2cc(N(C)C)c3c(c2O)C(=O)C2=C(O)[C@]4(O)C(=O)C(C(N)=O)=C(O)[C@@H](N(C)C)[C@@H]4C[C@@H]2C3)CC1 | Streptococcus pneumoniae |  | ATCC 700905, Tet M ribosome protection |  | < 0.06 µg/mL
CC[C@@H](C)[C@@H](NC(=O)[C@@H](C)NC(=O)[C@@H](CCCCN)NC(=O)[C@@H](CC(C)C)NC(=O)[C@@H](CC(C)C)NC(=O)[C@H](NC(=O)[C@@H](CCCCN)NC(=O)[C@@H](CC(C)C)NC(=O)[C@@H](C)NC(=O)[C@@H](CCCCN)NC(=O)[C@@H](CCCCN)NC(=O)[C@@H](CCCCN)NC(=O)[C@@H](C)NC(=O)[C@@H](CCCCN)NC(=O)[C@@H](CO)NC(=O)[C@@H](Cc1ccccc1)NC(=O)[C@H](NC(=O)[C@@H](CCCCN)NC(=O)[C@@H](CC(C)C)NC(=O)[C@@H](Cc1ccccc1)NC(=O)[C@@H](CO)NC(=O)[C@@H](CCCCN)NC(=O)[C@@H](Cc1c[nH]c2ccccc12)NC(=O)[C@@H](CCCCN)NC(C)=O)[C@H](C)O)[C@H](C)O)C(=O)N[C@H](CO)C(=O)N[C@H](CCCCN)C(N)=O | Acinetobacter baumannii |  | 689, Mueller-Hinton broth | 24 h, 37 °C | 1.3 µM
CC[C@@H](C)[C@@H](NC(=O)[C@@H](C)N)C(=O)N[C@H](CCCCN)C(=O)N[C@@H](C(=O)N[C@H](CCCNC(=N)N)C(=O)N[C@H](CCCCN)C(=O)N[C@H](CC(C)C)C(=O)N[C@H](Cc1ccccc1)C(=O)N[C@H](CCCCN)C(=O)N[C@H](CCCCN)C(=O)N[C@H](CC(C)C)C(=O)N[C@H](CC(C)C)C(=O)N[C@H](CCCNC(=N)N)C(N)=O)[C@H](C)CC | Escherichia coli |  | ATCC 25922 | 1 h, 37 °C, non-dividing cells in PBS | 12.5 to 25 µg/mL
CC(=O)N[C@H](CCCCN)C(=O)N[C@H](CC(C)C)C(=O)N[C@H](CCCCN)C(=O)N[C@H](CO)C(=O)N[C@H](CC(C)C)C(=O)N[C@H](CC(C)C)C(=O)N[C@H](CCCCN)C(=O)N[C@@H](C(=O)N[C@H](CC(C)C)C(=O)N[C@H](CO)C(=O)N[C@H](CCCCN)C(=O)N[C@H](C)C(=O)N[C@H](CCCCN)C(=O)N[C@H](CCCCN)C(=O)N[C@H](CCCCN)C(=O)N[C@H](CC(C)C)C(=O)N[C@H](CC(C)C)C(=O)N[C@H](CCCCN)C(=O)N[C@@H](C(=O)N[C@H](C)C(=O)N[C@H](CC(C)C)C(=O)N[C@H](CCCCN)C(=O)N[C@H](C)C(=O)N[C@H](CC(C)C)C(=O)N[C@H](CO)C(=O)N[C@H](CCCCN)C(N)=O)[C@H](C)O)[C@H](C)O | Acinetobacter baumannii | broth microdilution | ATCC 17978 | 24 h, 37 °C | 0.7 µM
C[C@@H](c1ccn(Cc2ccc(Cl)c(Cl)c2)n1)[C@](O)(Cn1cnnn1)c1ccc(F)cc1F | Candida tropicalis | growth, broth microdilution | 2718 | 24 h, 30 °C, ≥50% inhibition | 0.016 µg/mL
CC[C@@H](C)[C@@H](NC(=O)[C@@H](C)NC(=O)[C@@H](CCCCN)NC(=O)[C@@H](CC(C)C)NC(=O)[C@@H](C)NC(=O)[C@H](NC(=O)[C@@H](CCCCN)NC(=O)[C@@H](CC(C)C)NC(=O)[C@H](NC(=O)[C@@H](CCCCN)NC(=O)[C@@H](CCCCN)NC(=O)[C@@H](CCCCN)NC(=O)[C@@H](C)NC(=O)[C@@H](CCCCN)NC(=O)[C@@H](CO)NC(=O)[C@@H](Cc1ccccc1)NC(=O)[C@H](NC(=O)[C@@H](CCCCN)NC(=O)[C@@H](CC(C)C)NC(=O)[C@@H](Cc1ccccc1)NC(=O)[C@@H](CO)NC(=O)[C@@H](CCCCN)NC(=O)[C@@H](Cc1c[nH]c2ccccc12)NC(=O)[C@@H](CCCCN)NC(C)=O)[C@H](C)O)C(C)C)[C@H](C)O)C(=O)N[C@H](CO)C(=O)N[C@H](CCCCN)C(N)=O | Acinetobacter baumannii |  | 649, Mueller-Hinton broth | 24 h, 37 °C | 0.3 µM
CN(C)c1cc(CNCc2ccco2)c(O)c2c1C[C@H]1C[C@H]3[C@H](N(C)C)C(O)=C(C(N)=O)C(=O)[C@@]3(O)C(O)=C1C2=O | Streptococcus pneumoniae | microbial growth, broth dilution |  |  | 0.5 µg/mL

Some of these lines once more:
SMILES | organism | test | system | conditions | MIC
c1ccc(CN2CCOCCOCCN(CCCCCCCCCCN3CCOCCOCCN(CCCCCCCCCCN4CCOCCOCCN(Cc5ccccc5)CCOCCOCC4)CCOCCOCC3)CCOCCOCC2)cc1 | Streptococcus pneumoniae | microbial growth |  |  | 6 µM
COC1CCN(Cc2cc(N(C)C)c3c(c2O)C(=O)C2=C(O)[C@]4(O)C(=O)C(C(N)=O)=C(O)[C@@H](N(C)C)[C@@H]4C[C@@H]2C3)CC1 | Streptococcus pneumoniae |  | ATCC 700905, Tet M ribosome protection |  | < 0.06 µg/mL
